Published values from different studies.
Lines come from different studies, so protocols differ. ± marks the error that the study gave.
NTSR1: Neurotensin receptor type 1 (NTSR1, Homo sapiens, UniProt P30989)
UniProt P30989, sequence (whole entry, looked up): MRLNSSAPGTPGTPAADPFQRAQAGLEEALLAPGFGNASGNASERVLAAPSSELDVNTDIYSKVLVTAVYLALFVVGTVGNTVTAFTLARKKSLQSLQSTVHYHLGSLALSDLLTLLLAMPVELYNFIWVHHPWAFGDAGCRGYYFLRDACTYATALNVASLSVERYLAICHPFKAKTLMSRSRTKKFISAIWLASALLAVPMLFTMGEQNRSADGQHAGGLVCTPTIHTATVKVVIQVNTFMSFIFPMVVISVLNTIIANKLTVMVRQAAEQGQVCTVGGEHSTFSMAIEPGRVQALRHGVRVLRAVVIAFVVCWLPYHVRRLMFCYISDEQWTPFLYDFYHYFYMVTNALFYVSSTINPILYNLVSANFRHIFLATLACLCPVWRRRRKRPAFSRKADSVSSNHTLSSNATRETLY
C3ar1: C3a anaphylatoxin chemotactic receptor (C3ar1, Mus musculus, UniProt O09047)
UniProt O09047, sequence (whole entry, looked up): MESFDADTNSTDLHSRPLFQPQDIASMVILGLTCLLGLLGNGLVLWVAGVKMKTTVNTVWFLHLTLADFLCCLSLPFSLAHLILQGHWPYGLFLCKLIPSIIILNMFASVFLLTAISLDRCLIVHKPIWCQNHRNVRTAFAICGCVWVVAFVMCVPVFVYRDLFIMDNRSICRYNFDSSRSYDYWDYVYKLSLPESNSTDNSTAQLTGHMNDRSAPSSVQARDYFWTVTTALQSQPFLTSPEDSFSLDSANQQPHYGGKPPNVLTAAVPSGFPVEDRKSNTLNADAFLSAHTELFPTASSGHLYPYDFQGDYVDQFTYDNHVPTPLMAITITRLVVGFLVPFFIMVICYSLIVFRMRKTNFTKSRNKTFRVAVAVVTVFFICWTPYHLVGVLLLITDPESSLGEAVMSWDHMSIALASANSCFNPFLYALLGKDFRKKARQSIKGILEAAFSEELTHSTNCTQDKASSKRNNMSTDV
TDP1: Tyrosyl-DNA phosphodiesterase 1 (TDP1, Homo sapiens, UniProt Q9NUW8)
UniProt Q9NUW8, sequence (whole entry, looked up): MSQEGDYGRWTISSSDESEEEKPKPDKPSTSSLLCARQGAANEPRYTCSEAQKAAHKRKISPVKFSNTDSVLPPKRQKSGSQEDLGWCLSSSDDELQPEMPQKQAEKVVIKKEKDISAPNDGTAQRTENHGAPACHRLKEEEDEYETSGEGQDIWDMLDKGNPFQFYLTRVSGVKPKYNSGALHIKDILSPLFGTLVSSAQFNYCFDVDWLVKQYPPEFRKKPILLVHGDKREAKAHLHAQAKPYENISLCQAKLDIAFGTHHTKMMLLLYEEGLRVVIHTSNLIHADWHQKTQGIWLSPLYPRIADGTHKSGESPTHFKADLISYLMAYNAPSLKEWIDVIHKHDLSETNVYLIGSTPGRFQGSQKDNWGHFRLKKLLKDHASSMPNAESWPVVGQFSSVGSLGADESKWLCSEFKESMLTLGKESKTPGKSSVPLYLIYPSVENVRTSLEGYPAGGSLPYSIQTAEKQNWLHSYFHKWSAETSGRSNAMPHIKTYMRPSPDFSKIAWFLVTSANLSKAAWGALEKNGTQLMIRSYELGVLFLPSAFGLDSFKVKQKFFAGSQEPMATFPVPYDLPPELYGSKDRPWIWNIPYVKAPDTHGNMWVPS
1-phosphatidylinositol 4,5-bisphosphate phosphodiesterase gamma-1 residues 21-1215: 1-phosphatidylinositol 4,5-bisphosphate phosphodiesterase gamma-1, residues 21-1215 (Rattus norvegicus, UniProt P10686)
UniProt P10686, sequence (21-1215, looked up): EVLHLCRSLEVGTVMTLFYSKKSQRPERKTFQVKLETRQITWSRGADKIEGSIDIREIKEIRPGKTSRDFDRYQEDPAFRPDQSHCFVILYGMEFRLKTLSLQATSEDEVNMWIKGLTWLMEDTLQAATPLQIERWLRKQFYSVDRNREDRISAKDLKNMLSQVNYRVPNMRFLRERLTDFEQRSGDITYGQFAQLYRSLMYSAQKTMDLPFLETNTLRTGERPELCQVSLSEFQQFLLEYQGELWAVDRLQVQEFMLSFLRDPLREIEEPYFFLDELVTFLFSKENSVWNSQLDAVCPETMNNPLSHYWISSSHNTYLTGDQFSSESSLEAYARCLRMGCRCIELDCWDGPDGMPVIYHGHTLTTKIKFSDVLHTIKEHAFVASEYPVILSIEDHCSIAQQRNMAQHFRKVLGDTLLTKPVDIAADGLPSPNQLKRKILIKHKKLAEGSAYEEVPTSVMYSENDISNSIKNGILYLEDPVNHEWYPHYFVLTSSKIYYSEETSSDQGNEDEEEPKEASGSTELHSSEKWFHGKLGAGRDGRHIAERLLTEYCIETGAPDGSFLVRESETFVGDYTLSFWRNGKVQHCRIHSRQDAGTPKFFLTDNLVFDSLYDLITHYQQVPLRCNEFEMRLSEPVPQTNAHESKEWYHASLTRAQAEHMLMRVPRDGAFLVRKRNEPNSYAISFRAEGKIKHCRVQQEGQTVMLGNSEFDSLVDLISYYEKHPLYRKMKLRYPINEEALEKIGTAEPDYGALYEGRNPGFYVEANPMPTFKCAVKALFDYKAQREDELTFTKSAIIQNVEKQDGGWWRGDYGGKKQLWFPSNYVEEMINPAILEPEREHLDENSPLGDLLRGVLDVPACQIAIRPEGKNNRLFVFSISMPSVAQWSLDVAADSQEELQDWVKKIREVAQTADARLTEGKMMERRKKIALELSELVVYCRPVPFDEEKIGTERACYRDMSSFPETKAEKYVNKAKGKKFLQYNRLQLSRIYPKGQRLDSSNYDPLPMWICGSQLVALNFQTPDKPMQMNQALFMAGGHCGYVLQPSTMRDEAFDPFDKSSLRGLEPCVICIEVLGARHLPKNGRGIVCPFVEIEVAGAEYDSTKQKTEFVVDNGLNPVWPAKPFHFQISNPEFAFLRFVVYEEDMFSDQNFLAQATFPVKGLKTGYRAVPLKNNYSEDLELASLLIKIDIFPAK
UniProt Q92847, sequence (whole entry, looked up): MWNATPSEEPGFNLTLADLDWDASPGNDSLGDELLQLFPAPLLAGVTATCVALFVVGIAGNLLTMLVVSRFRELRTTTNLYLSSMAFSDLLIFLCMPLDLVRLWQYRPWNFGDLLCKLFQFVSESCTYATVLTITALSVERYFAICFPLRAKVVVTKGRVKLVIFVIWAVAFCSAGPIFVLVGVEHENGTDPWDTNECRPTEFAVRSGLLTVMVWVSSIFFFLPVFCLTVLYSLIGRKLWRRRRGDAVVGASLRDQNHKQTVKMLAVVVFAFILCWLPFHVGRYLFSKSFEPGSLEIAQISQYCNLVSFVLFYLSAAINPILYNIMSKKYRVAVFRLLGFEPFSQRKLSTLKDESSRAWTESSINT
UniProt P43220, sequence (whole entry, unmodified, looked up): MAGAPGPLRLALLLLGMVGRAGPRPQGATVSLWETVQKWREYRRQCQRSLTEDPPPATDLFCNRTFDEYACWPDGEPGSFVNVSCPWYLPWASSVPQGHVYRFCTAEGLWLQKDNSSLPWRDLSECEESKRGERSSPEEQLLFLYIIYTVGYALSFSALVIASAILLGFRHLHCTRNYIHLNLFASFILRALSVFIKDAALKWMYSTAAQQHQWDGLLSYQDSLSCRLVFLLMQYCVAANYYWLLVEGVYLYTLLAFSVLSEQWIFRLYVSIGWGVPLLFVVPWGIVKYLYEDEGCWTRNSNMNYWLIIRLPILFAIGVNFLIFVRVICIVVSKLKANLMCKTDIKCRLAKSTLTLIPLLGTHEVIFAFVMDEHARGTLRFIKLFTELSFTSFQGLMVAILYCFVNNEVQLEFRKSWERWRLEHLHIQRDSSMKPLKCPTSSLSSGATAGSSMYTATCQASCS
UniProt Q01650, sequence (whole entry, looked up): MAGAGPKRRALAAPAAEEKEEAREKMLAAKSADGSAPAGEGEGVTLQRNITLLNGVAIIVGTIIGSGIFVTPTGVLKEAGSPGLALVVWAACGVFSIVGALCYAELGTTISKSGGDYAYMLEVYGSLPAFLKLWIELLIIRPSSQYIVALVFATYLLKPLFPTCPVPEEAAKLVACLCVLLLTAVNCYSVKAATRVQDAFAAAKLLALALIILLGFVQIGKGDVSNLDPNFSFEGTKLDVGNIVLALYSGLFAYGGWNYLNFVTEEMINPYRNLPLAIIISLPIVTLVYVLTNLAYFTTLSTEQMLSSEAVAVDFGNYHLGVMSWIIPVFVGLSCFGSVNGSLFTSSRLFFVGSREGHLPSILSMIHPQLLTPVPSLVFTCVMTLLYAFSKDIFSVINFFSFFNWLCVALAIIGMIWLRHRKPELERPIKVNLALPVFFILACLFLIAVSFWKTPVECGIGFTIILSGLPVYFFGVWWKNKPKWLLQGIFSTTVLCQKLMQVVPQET
UniProt Q15391, sequence (whole entry, unmodified, looked up): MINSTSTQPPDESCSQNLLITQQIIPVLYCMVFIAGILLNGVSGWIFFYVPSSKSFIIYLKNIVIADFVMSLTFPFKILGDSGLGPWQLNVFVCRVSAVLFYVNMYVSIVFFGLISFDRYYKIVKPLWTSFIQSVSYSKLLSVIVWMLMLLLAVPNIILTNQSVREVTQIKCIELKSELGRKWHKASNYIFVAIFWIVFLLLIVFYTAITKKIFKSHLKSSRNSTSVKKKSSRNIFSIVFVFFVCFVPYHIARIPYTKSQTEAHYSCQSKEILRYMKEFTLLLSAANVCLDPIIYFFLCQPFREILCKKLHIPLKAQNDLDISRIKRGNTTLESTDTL
UniProt P0DMS8, sequence (whole entry, unmodified, looked up): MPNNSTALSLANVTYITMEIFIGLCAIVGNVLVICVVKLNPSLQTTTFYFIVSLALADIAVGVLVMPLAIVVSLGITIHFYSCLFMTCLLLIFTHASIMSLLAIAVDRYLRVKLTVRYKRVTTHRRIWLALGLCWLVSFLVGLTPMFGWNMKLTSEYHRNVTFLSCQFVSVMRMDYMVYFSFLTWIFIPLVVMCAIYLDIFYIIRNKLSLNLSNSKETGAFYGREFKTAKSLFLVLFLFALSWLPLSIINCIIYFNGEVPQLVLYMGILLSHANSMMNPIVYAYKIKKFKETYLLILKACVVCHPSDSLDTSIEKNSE

| Structure (SMILES) | target | assay | system | setting | quantity | result |
| --- | --- | --- | --- | --- | --- | --- |
| COc1ccccc1C1CCN(c2nc(C3CC3)nc3ccc(N(C)CCO)cc23)CC1 | NTSR1 | β-arrestin recruitment, agonist |  |  | EC50 | 6.76 µM |
| O=C(CNC(=O)c1ccc(Cl)cc1)NO | ureC (Bifidobacterium longum, UniProt A0ACD7UN78) |  |  |  | EC50 | 26.5 ± 0.2 µM |
| CC(C)C[C@H](NC(=O)[C@@H](N)[C@@H](C)O)C(=O)N[C@@H](CCC(N)=O)C(=O)N1CCC[C@H]1C(=O)N1CCC[C@H]1C(=O)N[C@@H](C)C(=O)N[C@@H](CO)C(=O)N[C@@H](CO)C(=O)N[C@@H](CCCNC(=N)N)C(=O)N[C@@H](CCCNC(=N)N)C(=O)N[C@@H](CCCNC(=N)N)C(=O)N[C@@H](Cc1c[nH]cn1)C(=O)N[C@@H](Cc1ccccc1)C(=O)N[C@@H](Cc1c[nH]cn1)C(=O)N[C@@H](Cc1c[nH]cn1)C(=O)N[C@@H](C)C(=O)N[C@@H](CC(C)C)C(=O)N1CCC[C@H]1C(=O)N1CCC[C@H]1C(=O)N[C@@H](C)C(=O)N[C@@H](CCCNC(=N)N)C(=O)O | C3ar1 | beta-arrestin 2 recruitment, agonist, NanoBiT | mouse |  | EC50 | 0.115 µM |
| O=C(O)c1ccc(Nc2c(-c3ccc(CON=CC(=CNc4ccc(Cl)cn4)c4nc5ccccc5o4)cc3)nc3cc(-c4ccccc4)ccn23)cc1 (mixture of isomers) | TDP1 | enzyme activity, inhibitor |  | 100 µM, unpurified compound | inhibition | 69.5% |
| Nc1ncnc2c1ncn2[C@@H]1O[C@H](COP(=O)(O)OP(=O)(O)OC[C@H]2OC(O)[C@H](O)[C@@H]2O)[C@@H](O)[C@H]1OP(=O)(O)O (stereo partly shown) | TRPM2 (Nematostella vectensis, UniProt A7T1N0, R156C) | agonist |  |  | EC50 | 0.032 ± 0.002 µM |
| CCOC(=O)Nc1ccc(NCc2ccc(F)cc2)nc1N | 1-phosphatidylinositol 4,5-bisphosphate phosphodiesterase gamma-1 residues 21-1215 | enzyme activity, activator | lipid vesicles | 15 min preincubation, with: XY-69 substrate 0.5 µM | EC50 | > 100 µM |
| COc1ccccc1C1CCN(c2nc(C3(C(F)(F)F)CC3)nc3ccc(N(C)CCO)cc23)CC1 | NTSR1 | β-arrestin recruitment, agonist |  |  | EC50 | 3.37 µM |
| N[C@@H](Cc1c[nH]c2ccc(OCc3ccc(-c4cccs4)cc3)cc12)C(=O)O | SLC7A5 (Homo sapiens, UniProt Q01650) | leucine uptake | HT-29 | with: [3H]-L-leucine | EC50 | 19.8 µM |
| COc1ccc(C(=O)c2c(C(=O)NCCCN(C)C)oc3ccc(Cl)cc3c2=O)cc1OC | GHSR (Homo sapiens, UniProt Q92847) | calcium signal, agonist |  |  | EC50 | 0.0398 µM |
| COc1ccccc1C1CCN(c2nc(C3(F)CCCC3)nc3ccc(N(C)CCO)cc23)CC1 | NTSR1 | β-arrestin recruitment, agonist |  |  | EC50 | 13.1 µM |
| O=c1ccn([C@@H]2O[C@H](COP(=O)(O)CP(=O)(O)O)[C@@H](O)[C@H]2O)c(=S)[nH]1 | P2Y purinoceptor 14 (P2RY14, Homo sapiens, UniProt Q15391) | calcium mobilisation, agonist | cells with Gαqi5 | receptor mutant Wt | EC50 | 0.24 ± 0.066 µM |
| COc1ccccc1C1CCN(c2nc(C3(C(F)(F)F)CCCC3)nc3ccc(N(C)CCO)cc23)CC1 | NTSR1 | β-arrestin recruitment, agonist |  |  | EC50 | 18 µM |
| C#Cc1nc(N2CCC(c3ccccc3OC)CC2)c2cc(N(C)CCO)ccc2n1 | NTSR1 | β-arrestin recruitment, agonist |  |  | EC50 | 175 µM |
| CC(C)[C@H](NC(=O)[C@@H]1CSSC(C)(C)[C@H](NC(=O)[C@@H](N)CC(=O)O)C(=O)N[C@@H](Cc2ccccc2)C(=O)N[C@H](Cc2c[nH]c3ccccc23)C(=O)N[C@@H](CCCN)C(=O)N[C@@H](Cc2ccc(O)cc2)C(=O)N1)C(=O)O | UTS2R (Homo sapiens, UniProt Q9UKP6) | β-arrestin1 recruitment, agonist, BRET2 | HEK293 | 10 min | EC50 | 0.0033 ± 0.003 µM |
| COc1ccccc1C1CCN(c2nc(C3CC3)nc3c(N(C)CCO)cccc23)CC1 | NTSR1 | β-arrestin recruitment, agonist |  |  | EC50 | ~54500 µM |
| COc1cc2nc(C3CC3)nc(N3CCC(c4ccccc4OC)CC3)c2cc1OC | NTSR1 | β-arrestin recruitment, agonist |  |  | EC50 | 13 µM |
| Cn1c(=O)[nH]c(=O)c2c1nc(CN1CCN(c3cccc(Cl)c3)CC1)n2Cc1cccc(Cl)c1 | 1-phosphatidylinositol 4,5-bisphosphate phosphodiesterase gamma-1 residues 21-1215 | enzyme activity, activator | lipid vesicles | 15 min preincubation, with: XY-69 substrate 0.5 µM | EC50 | 28 µM |
| COc1ccccc1C1CCN(c2nc(C3(F)CC3)nc3c(Cl)cc(N(C)CCO)cc23)CC1 | NTSR1 | β-arrestin recruitment, agonist |  |  | EC50 | 3.64 µM |
| COc1ccccc1N1CCN(c2nc(C3CC3)nc3cc(C(F)(F)F)c(OC)cc23)CC1 | NTSR1 | β-arrestin recruitment, agonist |  |  | EC50 | 4.75 µM |
| Cn1c(=O)n(C2CCC(=O)NC2=O)c2ccc(C3CCN(CC(=O)Nc4cccc(CS(=O)(=O)N5CC[C@H](Nc6cccc(-c7sc(C(=O)O)c(OCC(=O)O)c7Cl)c6)CC5(C)C)c4)CC3)cc21 (stereo partly shown) | PTEN (Homo sapiens, UniProt P60484) | phosphatase activity |  | with: DiFMUP substrate | EC50 | > 10 µM |
| COc1cc2nc(C3(C)CC3)nc(N3CCC(c4ccccc4OC)CC3)c2cc1OC | NTSR1 | β-arrestin recruitment, agonist |  |  | EC50 | 7.56 µM |
| CC(C)C[C@H](NC(=O)[C@H](C)NC(=O)[C@H](CO)NC(=O)[C@@H]1CCCN1C(=O)[C@@H]1CCCN1C(=O)[C@H](CCC(N)=O)NC(=O)[C@H](CC(C)C)NC(=O)[C@@H](N)[C@@H](C)O)C(=O)N[C@@H](CCCNC(=N)N)C(=O)N[C@@H](CCCNC(=N)N)C(=O)N[C@@H](CCCNC(=N)N)C(=O)N[C@@H](Cc1c[nH]cn1)C(=O)N[C@@H](Cc1ccc(O)cc1)C(=O)N[C@@H](Cc1c[nH]cn1)C(=O)N[C@@H](Cc1c[nH]cn1)C(=O)N[C@@H](C)C(=O)N[C@@H](CC(C)C)C(=O)N1CCC[C@H]1C(=O)N1CCC[C@H]1C(=O)N[C@@H](CO)C(=O)N[C@@H](CCCNC(=N)N)C(=O)O | C3ar1 | beta-arrestin 2 recruitment, agonist, NanoBiT | mouse |  | EC50 | 0.617 µM |
| COc1ccccc1C1CCN(c2nc(C3(F)CCC3)nc3c(Cl)cc(N(C)CCO)cc23)CC1 | NTSR1 | β-arrestin recruitment, agonist |  |  | EC50 | 3.47 µM |
| CNc1ncnc2c1ncn2C1OC(CO)C(O)C1O (stereo not shown) | ADORA3 (Homo sapiens, UniProt P0DMS8, I253N) | G protein activation, agonist |  |  | EC50 | 0.069 µM |
| COc1cc(C2C(NC(=O)c3ccc(NC(=O)OC(C)(C)C)cc3)(C(=O)O)C(c3ccc(OC(=O)c4cccs4)c(OC)c3)C2(NC(=O)c2ccc(NC(=O)OC(C)(C)C)cc2)C(=O)O)ccc1OC(=O)c1cccs1 (stereo not shown) | GLP1R (Homo sapiens, UniProt P43220, V194A) | cAMP, agonist |  |  | EC50 | 0.0105 µM |
| O=C(O)c1ccc(Nc2c(-c3ccccc3)nc3ccc(CON=CC4C(=O)Oc5ccc(Cl)cc5C4=O)cn23)cc1 (stereo not shown) | TDP1 | enzyme activity, inhibitor |  | 100 µM, unpurified compound | inhibition | 18.4% |
| COc1ccc(OC[C@H]2c3cccn3CC(=O)N2Cc2cccc(F)c2)cc1 | Grin2a/Grin2d (Rattus norvegicus, UniProt Q00959+Q62645) | activator | cells |  | EC50 | 1.8 µM |
| O=C(NC[C@@H](Cc1ccc(F)cc1)N1CCC(O)(C(F)(F)F)CC1)C1(c2ccc(Cl)cc2)CCCC1 | TRPA1 (Homo sapiens, UniProt O75762, V875P) |  |  |  | EC50 | 5.3 µM |

Excerpt of the above:
| Structure (SMILES) | target | assay | system | setting | quantity | result |
| --- | --- | --- | --- | --- | --- | --- |
| COc1ccccc1C1CCN(c2nc(C3(F)CCCC3)nc3ccc(N(C)CCO)cc23)CC1 | NTSR1 | β-arrestin recruitment, agonist |  |  | EC50 | 13.1 µM |
| O=c1ccn([C@@H]2O[C@H](COP(=O)(O)CP(=O)(O)O)[C@@H](O)[C@H]2O)c(=S)[nH]1 | P2Y purinoceptor 14 (P2RY14, Homo sapiens, UniProt Q15391) | calcium mobilisation, agonist | cells with Gαqi5 | receptor mutant Wt | EC50 | 0.24 ± 0.066 µM |
| COc1ccccc1C1CCN(c2nc(C3(C(F)(F)F)CCCC3)nc3ccc(N(C)CCO)cc23)CC1 | NTSR1 | β-arrestin recruitment, agonist |  |  | EC50 | 18 µM |
| C#Cc1nc(N2CCC(c3ccccc3OC)CC2)c2cc(N(C)CCO)ccc2n1 | NTSR1 | β-arrestin recruitment, agonist |  |  | EC50 | 175 µM |
